# Earlier results as cited in several papers.
# Protocols differ between the studies behind these lines. Numbers after ± are the reported error.
Structure (SMILES),target or system,test,system,conditions,scale,endpoint,result
CN(N=O)c1ccc(F)cc1,Salmonella typhimurium,,TA1535,"up to 1000 µg/plate, pre-incubation, and plate incorporation, together with: induced rat and hamster liver S9",,Ames test result,negative
NC(=O)O[C@@H](Cn1ncnn1)c1ccccc1Cl,,,mouse,"i.p., 6 Hz seizure test, 32 mA",,protective index,3.2
NC(=O)c1ccc2c(c1O)[C@]13CCN(CC4CC4)[C@H](C2)[C@]1(O)CCC(=O)C3,,,human,"oral, 5 mg, day 1",,AUC,115 ng·h/mL
CC[C@@H](C(N)=O)N1CCCC1=O,,,mouse,"i.p., 6 Hz seizure test, 32 mA",,protective index,> 31.8
C[C@H](Cn1cnc2c(N)ncnc21)OCP(=O)(O)O,OAT1,"transport activity, inhibitor",,,,IC50,120 ± 19 µM
CCCCCOc1ccc(-c2ccc(-c3ccc(C(=O)N[C@H]4C[C@@H](O)[C@@H](O)NC(=O)[C@@H]5[C@@H](O)[C@@H](C)CN5C(=O)[C@H]([C@@H](C)O)NC(=O)[C@H]([C@H](O)[C@@H](O)c5ccc(O)cc5)NC(=O)[C@@H]5C[C@@H](O)CN5C(=O)[C@H]([C@@H](C)O)NC4=O)cc3)cc2)cc1,,,mild hepatic impairment patients,50 mg single dose,,clearance,0.93 ± 0.22 L/h
COc1cc(Cc2cnc(N)nc2N)cc(OC)c1OC,OCT2,,,,,Ki,6.97 µM
CCN(CC)N=O,,"fingerprint mutation, refers to: C>T substitution","rat, liver",concentration not given,,mutation frequency,increased
Cc1nnc2n1-c1ccc(Cl)cc1C(c1ccccc1Cl)=NC2,,,human,together with: ritonavir,relative to: with over without ritonavir,AUC(0-t) ratio,40.7
C=C(C)[C@@H]1CCC(C)=C[C@H]1c1c(O)cc(CCCCC)cc1O,"CYP2C19, human","enzyme activity, inhibitor",human liver microsomes,10 µM,,inhibition,inhibited
COC(=O)C(c1ccccc1)C1CCCCN1 (centres unmarked),,,"human, plasma","dose not given, range of reported values",,AUC,0.101 to 1150 µM·h
O=C1N[C@@H]2CCCC[C@H]2N[C@@H]1c1c[nH]c2ncccc12,COLO 320 ABCB1-resistant colon,cytotoxicity,,,,IC50,> 100 µM
C=C[C@@H]1C[C@]1(NC(=O)[C@@H]1C[C@@H]2CN1C(=O)[C@H](C(C)(C)C)NC(=O)O[C@@H]1C[C@H]1CCCCCc1nc3ccc(OC)cc3nc1O2)C(=O)NS(=O)(=O)C1CC1,CYP2C8,inhibitor,,,,IC50,6 µM
CCCCCc1cc(O)c2c(c1)OC(C)(C)[C@@H]1CCC(C)=C[C@@H]21,"CYP2B6, human","enzyme activity, inhibitor",human liver microsomes,10 µM,,inhibition,inhibited

# Excerpt of the above:
Structure (SMILES),target or system,test,system,conditions,scale,endpoint,result
NC(=O)c1ccc2c(c1O)[C@]13CCN(CC4CC4)[C@H](C2)[C@]1(O)CCC(=O)C3,,,human,"oral, 5 mg, day 1",,AUC,115 ng·h/mL
